Published values gathered from unrelated publications.
Each line is one published result; not all experiments were run side by side. Values joined by “and” are separate records of one study, mostly repeats; a detail may differ. ± gives the spread as reported.
YWHAZ: 14-3-3 protein zeta/delta (YWHAZ, Homo sapiens, UniProt P63104)
Sequence of UniProt P63104 (whole entry, looked up): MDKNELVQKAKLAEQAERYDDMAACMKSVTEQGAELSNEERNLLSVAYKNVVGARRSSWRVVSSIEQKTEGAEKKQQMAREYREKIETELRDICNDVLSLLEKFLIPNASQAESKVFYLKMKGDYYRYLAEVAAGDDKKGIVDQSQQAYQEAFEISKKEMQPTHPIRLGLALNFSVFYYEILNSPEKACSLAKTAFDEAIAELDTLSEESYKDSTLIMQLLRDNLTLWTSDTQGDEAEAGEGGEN
VSIR IgV domain: V-type immunoglobulin domain-containing suppressor of T-cell activation, IgV domain (VSIR, Homo sapiens, UniProt Q9H7M9)
Sequence of UniProt Q9H7M9 (whole entry, looked up): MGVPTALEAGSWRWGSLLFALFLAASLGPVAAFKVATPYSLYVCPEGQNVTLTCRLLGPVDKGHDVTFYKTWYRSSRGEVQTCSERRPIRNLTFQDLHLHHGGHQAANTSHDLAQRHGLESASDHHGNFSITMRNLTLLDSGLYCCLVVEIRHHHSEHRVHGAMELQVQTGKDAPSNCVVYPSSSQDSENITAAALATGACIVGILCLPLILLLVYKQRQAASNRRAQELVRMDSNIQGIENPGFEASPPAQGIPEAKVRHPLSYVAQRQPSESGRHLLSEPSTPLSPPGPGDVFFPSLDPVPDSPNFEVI
F-box only protein 22: F-box only protein 22 (Homo sapiens, UniProt Q8NEZ5)
Sequence of UniProt Q8NEZ5 (whole entry, looked up): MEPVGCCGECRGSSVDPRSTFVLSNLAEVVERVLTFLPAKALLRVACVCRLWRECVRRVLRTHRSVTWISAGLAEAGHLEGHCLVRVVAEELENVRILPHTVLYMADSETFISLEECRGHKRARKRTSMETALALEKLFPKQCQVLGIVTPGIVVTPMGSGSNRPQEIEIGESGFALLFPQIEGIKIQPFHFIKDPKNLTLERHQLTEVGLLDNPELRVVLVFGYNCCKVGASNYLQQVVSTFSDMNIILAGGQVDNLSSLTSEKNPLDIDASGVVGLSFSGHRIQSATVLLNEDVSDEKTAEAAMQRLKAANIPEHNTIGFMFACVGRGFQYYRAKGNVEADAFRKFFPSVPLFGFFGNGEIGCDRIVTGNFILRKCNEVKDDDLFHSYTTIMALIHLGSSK
LRP6 E1 domain: Low-density lipoprotein receptor-related protein 6, E1 domain (LRP6, Homo sapiens, UniProt O75581)
Sequence of UniProt Q9H2X3 (whole entry, looked up): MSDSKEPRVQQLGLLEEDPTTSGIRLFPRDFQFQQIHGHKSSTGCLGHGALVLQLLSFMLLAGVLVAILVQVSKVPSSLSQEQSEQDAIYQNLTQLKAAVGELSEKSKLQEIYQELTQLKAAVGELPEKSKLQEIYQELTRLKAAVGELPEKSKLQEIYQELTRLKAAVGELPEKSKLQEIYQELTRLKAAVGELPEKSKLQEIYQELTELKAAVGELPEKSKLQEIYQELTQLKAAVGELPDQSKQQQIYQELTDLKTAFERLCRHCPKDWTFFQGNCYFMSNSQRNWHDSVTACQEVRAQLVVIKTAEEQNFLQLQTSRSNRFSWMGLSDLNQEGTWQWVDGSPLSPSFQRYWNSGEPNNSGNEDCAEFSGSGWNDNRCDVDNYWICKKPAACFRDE
Sequence of UniProt O75581 (whole entry, looked up): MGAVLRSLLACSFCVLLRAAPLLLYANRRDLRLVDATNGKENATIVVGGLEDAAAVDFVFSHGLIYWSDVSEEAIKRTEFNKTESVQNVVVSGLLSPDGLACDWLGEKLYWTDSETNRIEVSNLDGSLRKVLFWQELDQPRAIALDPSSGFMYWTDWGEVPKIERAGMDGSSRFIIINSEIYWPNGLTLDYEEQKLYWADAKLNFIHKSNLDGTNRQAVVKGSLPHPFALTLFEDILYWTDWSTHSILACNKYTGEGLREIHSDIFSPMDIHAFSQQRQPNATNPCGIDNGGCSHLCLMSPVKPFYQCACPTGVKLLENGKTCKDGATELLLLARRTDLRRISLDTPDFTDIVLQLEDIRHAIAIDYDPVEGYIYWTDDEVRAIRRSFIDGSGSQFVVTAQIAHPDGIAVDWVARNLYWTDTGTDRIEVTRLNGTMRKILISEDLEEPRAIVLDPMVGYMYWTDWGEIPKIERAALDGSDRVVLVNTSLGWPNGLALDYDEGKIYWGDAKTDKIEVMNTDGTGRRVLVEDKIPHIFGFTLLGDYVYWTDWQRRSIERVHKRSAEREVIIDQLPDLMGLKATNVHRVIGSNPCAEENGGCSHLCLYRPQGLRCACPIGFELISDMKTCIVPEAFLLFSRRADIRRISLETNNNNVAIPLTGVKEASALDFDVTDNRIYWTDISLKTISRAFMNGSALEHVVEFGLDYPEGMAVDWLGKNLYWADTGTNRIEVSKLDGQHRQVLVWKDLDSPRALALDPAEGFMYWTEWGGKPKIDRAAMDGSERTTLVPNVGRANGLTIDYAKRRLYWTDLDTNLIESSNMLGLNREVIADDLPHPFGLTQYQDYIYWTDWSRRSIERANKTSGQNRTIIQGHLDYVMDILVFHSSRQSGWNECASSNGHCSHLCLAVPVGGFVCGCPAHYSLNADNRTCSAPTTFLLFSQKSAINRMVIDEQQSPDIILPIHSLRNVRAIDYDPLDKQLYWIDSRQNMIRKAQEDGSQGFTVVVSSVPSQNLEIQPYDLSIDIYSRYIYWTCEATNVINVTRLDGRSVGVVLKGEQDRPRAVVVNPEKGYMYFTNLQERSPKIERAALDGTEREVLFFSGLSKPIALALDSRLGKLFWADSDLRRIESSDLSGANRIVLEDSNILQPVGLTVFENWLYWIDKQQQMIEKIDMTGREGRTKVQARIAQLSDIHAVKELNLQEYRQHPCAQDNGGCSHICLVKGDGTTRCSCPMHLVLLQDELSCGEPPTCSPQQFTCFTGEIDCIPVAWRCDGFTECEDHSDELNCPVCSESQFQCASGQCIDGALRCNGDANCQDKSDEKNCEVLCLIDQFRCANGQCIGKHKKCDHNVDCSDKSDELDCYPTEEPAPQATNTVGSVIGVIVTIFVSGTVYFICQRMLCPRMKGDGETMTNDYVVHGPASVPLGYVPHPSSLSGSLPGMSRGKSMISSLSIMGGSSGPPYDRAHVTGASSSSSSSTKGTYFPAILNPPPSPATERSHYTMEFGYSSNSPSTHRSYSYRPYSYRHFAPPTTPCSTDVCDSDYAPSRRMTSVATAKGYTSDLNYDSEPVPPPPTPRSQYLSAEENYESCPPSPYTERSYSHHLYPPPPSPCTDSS
Sequence of UniProt P43403 (whole entry, looked up): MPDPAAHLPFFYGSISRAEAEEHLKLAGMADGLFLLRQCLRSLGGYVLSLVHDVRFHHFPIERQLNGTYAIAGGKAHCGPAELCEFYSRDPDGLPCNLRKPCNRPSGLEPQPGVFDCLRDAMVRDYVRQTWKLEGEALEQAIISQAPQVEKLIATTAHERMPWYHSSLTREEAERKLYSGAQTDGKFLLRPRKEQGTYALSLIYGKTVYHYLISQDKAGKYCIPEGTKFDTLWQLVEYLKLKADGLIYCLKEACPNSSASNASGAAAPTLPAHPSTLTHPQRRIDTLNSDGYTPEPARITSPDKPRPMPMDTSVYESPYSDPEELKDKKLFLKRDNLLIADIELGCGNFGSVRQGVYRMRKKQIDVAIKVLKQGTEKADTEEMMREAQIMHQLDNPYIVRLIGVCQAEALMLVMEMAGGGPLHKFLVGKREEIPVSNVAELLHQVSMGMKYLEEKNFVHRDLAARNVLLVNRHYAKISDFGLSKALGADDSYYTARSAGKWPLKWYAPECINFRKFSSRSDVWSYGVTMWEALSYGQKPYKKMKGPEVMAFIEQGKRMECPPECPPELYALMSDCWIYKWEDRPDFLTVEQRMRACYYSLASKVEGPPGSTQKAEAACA
Sequence of UniProt P52003 (whole entry, looked up): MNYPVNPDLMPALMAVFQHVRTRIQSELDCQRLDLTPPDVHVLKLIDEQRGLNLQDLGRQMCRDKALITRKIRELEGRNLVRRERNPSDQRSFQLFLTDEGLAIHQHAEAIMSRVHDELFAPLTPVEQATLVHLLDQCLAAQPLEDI
Sequence of UniProt Q14145 (whole entry, looked up): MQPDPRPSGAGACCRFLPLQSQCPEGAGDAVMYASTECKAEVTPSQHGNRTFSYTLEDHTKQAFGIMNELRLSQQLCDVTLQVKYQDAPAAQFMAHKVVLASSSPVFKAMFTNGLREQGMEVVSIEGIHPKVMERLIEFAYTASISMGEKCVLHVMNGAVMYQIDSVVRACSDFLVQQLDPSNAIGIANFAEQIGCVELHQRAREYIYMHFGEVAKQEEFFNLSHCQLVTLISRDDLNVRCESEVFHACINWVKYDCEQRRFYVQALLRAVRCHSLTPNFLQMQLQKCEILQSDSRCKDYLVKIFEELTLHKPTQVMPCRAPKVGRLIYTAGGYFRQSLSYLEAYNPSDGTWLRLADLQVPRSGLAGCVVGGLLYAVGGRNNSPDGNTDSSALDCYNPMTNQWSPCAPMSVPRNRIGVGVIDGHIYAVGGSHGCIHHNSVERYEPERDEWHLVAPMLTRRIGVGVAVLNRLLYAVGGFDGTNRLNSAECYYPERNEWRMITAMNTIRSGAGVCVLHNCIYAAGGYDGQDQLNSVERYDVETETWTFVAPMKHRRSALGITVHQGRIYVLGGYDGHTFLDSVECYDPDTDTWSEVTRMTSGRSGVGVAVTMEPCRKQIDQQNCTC
Sequence of UniProt P27348 (whole entry, looked up): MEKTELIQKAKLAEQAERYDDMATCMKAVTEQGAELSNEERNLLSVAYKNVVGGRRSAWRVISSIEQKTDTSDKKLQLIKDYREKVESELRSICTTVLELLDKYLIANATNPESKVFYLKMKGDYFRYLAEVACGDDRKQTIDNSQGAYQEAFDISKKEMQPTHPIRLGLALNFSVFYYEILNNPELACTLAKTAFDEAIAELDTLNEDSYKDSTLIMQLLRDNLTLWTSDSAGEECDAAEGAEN
Sequence of UniProt P97287 (152-308, looked up): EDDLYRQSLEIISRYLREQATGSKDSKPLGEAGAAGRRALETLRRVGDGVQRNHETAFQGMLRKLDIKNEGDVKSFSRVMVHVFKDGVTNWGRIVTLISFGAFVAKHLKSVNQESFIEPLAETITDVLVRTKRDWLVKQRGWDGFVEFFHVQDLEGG

CC(=O)N[C@@H](CCC(=O)O)C(=O)N[C@@H](CCC(=O)O)C(=O)N[C@@H](CCC(=O)O)C(=O)N[C@@H](Cc1c[nH]c2ccccc12)C(=O)N[C@@H](C)C(=O)N[C@@H](CCCNC(=N)N)C(=O)N[C@@H](CCC(=O)O)C(=O)N[C@H](C)C(=O)NCC(=O)N[C@@H](C)C(=O)N[C@@H](CCC(N)=O)C(=O)N[C@@H](CC(C)C)C(=O)N[C@@H](CCCNC(=N)N)C(=O)N[C@@H](CCCNC(=N)N)C(=O)N[C@@H](C)C(=O)N[C@@H](C)C(=O)N[C@@H](CC(=O)O)C(=O)N[C@@H](CC(=O)O)C(=O)N[C@@H](CC(C)C)C(=O)N[C@@H](CC(N)=O)C(=O)N[C@@H](C)C(=O)N[C@@H](CCC(N)=O)C(=O)N[C@@H](Cc1ccc(O)cc1)C(=O)N[C@@H](CCC(=O)O)C(=O)N[C@@H](CCCNC(=N)N)C(=O)N[C@@H](CCCNC(=N)N)C(=O)N[C@@H](CCCNC(=N)N)C(N)=O
Kd (Induced myeloid leukemia cell differentiation protein Mcl-1 homolog, residues 152-308 (Mus musculus, UniProt P97287); surface plasmon resonance): 0.5 µM

CC[C@H](C)[C@H](NC(=O)[C@H](CCCNC(=N)N)NC(=O)[C@H](CCCCN)NC(=O)[C@@H](NC(=O)[C@H](C)NC(=O)[C@H](CCCNC(=N)N)NC(=O)[C@H](CCC(N)=O)NC(=O)[C@H](CO)NC(=O)[C@H](CCCCN)NC(=O)[C@H](CC(N)=O)NC(=O)[C@@H](N)CCCNC(=N)N)[C@@H](C)O)C(=O)N[C@@H](CO)C(=O)N[C@@H](Cc1c[nH]cn1)C(=O)N[C@@H](CCSC)C(=O)N1CCC[C@H]1C(=O)N[C@@H](CO)C(=O)N[C@@H](CCCNC(=N)N)C(=O)N1CCC[C@H]1C(=O)N[C@@H](CCC(=O)O)C(=O)N[C@@H](CC(C)C)C(=O)N[C@@H](CO)C(=O)N[C@@H](C)C(=O)N[C@H](C(=O)N[C@@H](C)C(=O)N[C@H](C(=O)N[C@@H](CC(=O)O)C(=O)N[C@@H](CC(C)C)C(=O)N[C@@H](CCCNC(=N)N)C(=O)N[C@@H](CCCCN)C(=O)N[C@@H](CC(=O)O)C(=O)N[C@@H](CCCCN)C(=O)N[C@@H](C)C(=O)N[C@@H](CCCCN)C(=O)N[C@@H](CO)C(=O)N[C@@H](CSC/C=C(\C)CC/C=C(\C)CCC=C(C)C)C(=O)OC)[C@@H](C)O)C(C)C
Kd (YWHAZ; cell-free assay, FP; pH 7.5): 7.74 µM

CC(C)C[C@H](NC(=O)[C@H](CCCCN)NC(=O)CNC(=O)[C@H](Cc1ccccc1)NC(=O)[C@H](CO)NC(=O)[C@H](Cc1c[nH]c2ccccc12)NC(=O)CNC(=O)[C@@H]1CCCN1C(=O)[C@@H](N)CC(=O)O)C(=O)N[C@@H](Cc1c[nH]cn1)C(=O)N[C@@H](Cc1c[nH]c2ccccc12)C(=O)N1CCC[C@H]1C(=O)O
Kd (VSIR IgV domain; binding, microscale thermophoresis): 0.019 µM

CC(C)C[C@H](NC(=O)[C@@H](NC(=O)c1ccc2c(c1)C(=O)OC21c2ccc(N(C)C)cc2Oc2cc(N(C)C)ccc21)C(C)C)C(=O)N[C@@H](Cc1ccc(O)cc1)C(=O)N[C@@H](C)C(=O)N[C@@H](CO)C(=O)N[C@H](C(=O)N[C@@H](CC(N)=O)C(=O)N1CCC[C@H]1C(=O)N[C@@H](CCC(=O)O)C(=O)N[C@@H](Cc1ccc(OP(=O)(O)O)cc1)C(=O)N[C@@H](Cc1ccccc1)C(=O)N[C@@H](CO)C(=O)N[C@@H](C)C(=O)N[C@@H](C)C(=O)N[C@@H](CC(=O)O)C(=O)N[C@H](C(=O)N[C@@H](Cc1ccc(O)cc1)C(=O)N[C@@H](CC(=O)O)C(=O)O)C(C)C)C(C)C
Kd (Tyrosine-protein kinase ZAP-70, SH2 domains (ZAP70, Homo sapiens, UniProt P43403); binding): 0.806 µM

COc1ccccc1C(c1ccccc1)C1CCCN1C(=O)CNC(=O)[C@@H]1CCCN1C(=O)[C@H](CC(C)C)NC(=O)[C@H](COP(=O)(O)O)NC(=O)[C@@H]1CCCN1C(=O)[C@@H](NC(=O)[C@H](CCCNC(=N)N)NC(C)=O)[C@@H](C)O (stereo partly drawn)
Kd (YWHAZ; isothermal titration calorimetry): 13.6 ± 2.46 µM

CC(C)C[C@H](NC(=O)CNC(=O)[C@H](C)NC(=O)[C@H](CC(=O)O)NC(=O)[C@H](CC(=O)O)NC(=O)[C@H](C)NC(=O)[C@@H]1CCCN1C(=O)[C@H](CCCCN)NC(=O)[C@H](C)NC(=O)[C@@H]1CCCN1C(=O)[C@@H]1CCCN1C(=O)[C@@H]1CCCN1C(=O)[C@H](CCC(=O)O)NC(=O)CN)C(=O)N[C@H](C(=O)O)C(C)C
Kd (F-box only protein 22; binding, SPR): 68 µM

Cn1c2cccc(=O)c-2nc2ccccc21
Kd (Multidrug resistance operon repressor (mexR, Pseudomonas aeruginosa, UniProt P52003); binding, competitive microscale thermophoresis): 16.5 µM

N=C(N)NCc1cn([C@@H]2[C@@H](OCCn3cc(COCCOCCOCCn4cc(-c5cc(OCCOCCO)c(C#Cc6cc(OCCOCCO)c(C#Cc7cc(OCCOCCO)c(-c8cn(CCOCCOCCOCc9cn(CCO[C@H]%10O[C@H](CO)[C@@H](O)[C@H](O)[C@@H]%10n%10cc(CNC(=N)N)nn%10)nn9)nn8)cc7OCCOCCO)cc6OCCOCCO)cc5OCCOCCO)nn4)nn3)O[C@H](CO)[C@@H](O)[C@@H]2O)nn1
Kd (C-type lectin domain family 4 member M, extracellular domain (CLEC4M, Homo sapiens, UniProt Q9H2X3); binding, surface binding; apparent Kd): 0.0249 µM and 0.0247 µM

CC[C@H](C)[C@@H]1NC(=O)[C@@H]2CCCN2C(=O)[C@H](Cc2c[nH]c3ccccc23)NC(=O)[C@H](CO)NC(=O)[C@H](Cc2c[nH]c3ccccc23)NC(=O)[C@H](CC(N)=O)NC(=O)[C@H](CCCCN)NC(=O)[C@H](CCSC)NC(=O)[C@@H]2CSCCC(=O)N3CN(CN(C3)C(=O)CCSC[C@H](NC(=O)[C@H](C)N)C(=O)N3CCC[C@H]3C(=O)N[C@@H](Cc3ccccc3)C(=O)NCC(=O)N2)C(=O)CCSC[C@@H](C(=O)N[C@H](C(=O)N[C@@H](CC(N)=O)C(=O)N[C@@H](CCCCN)C(=O)N(C)CC(=O)N(C)CC(=O)N(C)CC(=O)N(C)CC(=O)N(C)CC(=O)N(C)CC(=O)N[C@@H](CCCCNC(=O)c2ccc(C(=O)O)c(-c3c4ccc(=O)cc-4oc4cc(O)ccc34)c2)C(N)=O)[C@@H](C)O)NC(=O)[C@H](Cc2c[nH]c3ccccc23)NC1=O
Kd (Nectin-1 (NECTIN1, Homo sapiens, UniProt Q15223); fluorescence polarization): > 2 µM

O=C(N[C@@H]1c2ccccc2C[C@H]1N1CCCC1)c1ccc(-c2ccnc3[nH]ccc23)nc1
Kd (cGMP-dependent protein kinase 2 (PRKG2, Homo sapiens, UniProt Q13237); binding, competition with immobilised ligand): 0.105 µM

CC(C)C[C@H](NC(=O)[C@H](CCP(=O)(O)O)NC(=O)[C@@H](NC(=O)[C@@H](NC(=O)[C@H](CCCNC(=N)N)NC(=O)[C@H](CC(C)C)NC(=O)[C@H](CO)NC(=S)Nc1ccc2c(c1)C(=O)OC21c2ccc(O)cc2Oc2cc(O)ccc21)[C@@H](C)O)C(C)C)C(=O)NCC(=O)N[C@@H](C)C(=O)NCC(=O)N[C@@H](C)C(=O)N[C@@H](Cc1c[nH]c2ccccc12)C(=O)N[C@@H](CC(C)C)C(=O)N[C@H](C(=O)N1CCC[C@H]1C(=O)N[C@@H](CCCNC(=N)N)C(=O)O)C(C)C
Kd (14-3-3 protein theta (Homo sapiens, UniProt P27348); binding, fluorescence anisotropy; pH 7.5, FITC-labelled phosphopeptide titration): 37.5 µM

C[C@@H](O)[C@@H]1NC(=O)[C@H](CCC(=O)O)NC(=O)[C@@H]2CC(C(F)(F)F)CN2C(=O)[C@H](CC(=O)O)NC(=O)CC(C(F)(F)F)NC(=O)[C@H](CCC(=O)O)NC(=O)CNC1=O (stereo partly drawn)
Kd (Kelch-like ECH-associated protein 1 (KEAP1, Homo sapiens, UniProt Q14145); binding, MST): 0.0322 µM

CC(=O)N[C@@H](Cc1ccc(O)cc1)C(=O)N[C@@H](CC(N)=O)C(=O)N1CCC[C@H]1C(=O)N[C@@H](Cc1ccccc1)C(=O)N[C@@H](CCC(=O)O)C(=O)N[C@@H](CCC(=O)O)C(=O)NCC(=O)NCC(N)=O
Kd (EH domain-containing protein 1, EH domain (Homo sapiens, UniProt Q9H4M9); binding, isothermal titration calorimetry; 20 °C, 0 mM NaCl): 5.6 ± 0.6 µM

CC[C@H](C)[C@@H]1NC(=O)[C@H](CO)NC(=O)[C@H](CCC(N)=O)NC(=O)[C@@H](NC(=O)CN)CSSC[C@@H]2NC(=O)CNC(=O)[C@H](C)NC(=O)[C@H](CC(C)C)NC(=O)[C@@H]3CSSC[C@@H](C(=O)NCC(=O)O)NC(=O)[C@H](Cc4ccccc4)NC(=O)CNC(=O)[C@H](CC(N)=O)NC(=O)[C@@H]4CCCN4C(=O)CNC(=O)[C@H](CSSC[C@H](NC(=O)[C@H](CCCNC(=N)N)NC(=O)[C@H](CCC(N)=O)NC(=O)[C@H](CCCNC(=N)N)NC(=O)[C@H](CCCCN)NC(=O)[C@H](C(C)C)NC(=O)[C@H](CCCNC(=N)N)NC(=O)[C@H](CC(N)=O)NC1=O)C(=O)N[C@@H](CCCCN)C(=O)N[C@@H](CCC(N)=O)C(=O)N[C@@H](CC(=O)O)C(=O)N[C@@H](CO)C(=O)N[C@@H](CC(=O)O)C(=O)N3)NC(=O)[C@H](C(C)C)NC2=O
Kd (LRP6 E1 domain; binding, SPR; pH 7.5): 0.0272 µM

CSCC[C@H](NC=O)C(=O)N[C@@H](CCCNC(=N)N)C(=O)N[C@H](C(=O)NCC(=O)N[C@@H](CC(N)=O)C(=O)N[C@@H](C)C(=O)N[C@@H](CC(N)=O)C(=O)NCC(=O)NCC(=O)N[C@@H](CCCCNC(=S)Nc1ccc2c(c1)C(=O)OC21c2ccc(O)cc2Oc2cc(O)ccc21)C(=O)O)[C@@H](C)O
Kd (Uncharacterized protein YejA (yejA, Escherichia coli, UniProt P33913, D179A); binding, fluorescence polarisation; YejA variant D161A): 35.7 ± 4.35 µM

CC(C)C[C@@H]1NC(=O)[C@@H]2CSSC[C@@H](C(=O)NCC(=O)O)NC(=O)[C@H](Cc3ccccc3)NC(=O)CNC(=O)[C@H](CC(N)=O)NC(=O)[C@@H]3CCCN3C(=O)CNC(=O)[C@@H]3CSSC[C@H](NC(=O)[C@H](CCCNC(=N)N)NC(=O)[C@H](CCC(N)=O)NC(=O)[C@H](CCCNC(=N)N)NC(=O)[C@H](CCCCN)NC(=O)[C@H](C(C)C)NC(=O)[C@H](C)NC(=O)[C@H](CC(N)=O)NC(=O)[C@H](CO)NC(=O)[C@H](C)NC(=O)[C@H](CCCNC(=N)N)NC(=O)[C@@H](NC(=O)CN)CSSC[C@H](NC(=O)CNC(=O)[C@H](C)NC1=O)C(=O)N[C@@H](C(C)C)C(=O)N3)C(=O)N[C@@H](CCCCN)C(=O)N[C@@H](CCC(N)=O)C(=O)N[C@@H](CC(=O)O)C(=O)N[C@@H](CO)C(=O)N[C@@H](CC(=O)O)C(=O)N2
Kd (LRP6 E1 domain; binding, SPR; pH 7.5): 0.0212 µM

CC(C)C[C@H](NC(=O)CNC(=O)[C@H](C)NC(=O)[C@H](CC(=O)O)NC(=O)[C@H](CC(=O)O)NC(=O)[C@H](C)NC(=O)[C@@H]1CCCN1C(=O)[C@H](CCCCN)NC(=O)CNC(=O)[C@@H]1CCCN1C(=O)[C@@H]1CCCN1C(=O)[C@@H]1CCCN1C(=O)[C@H](CCC(=O)O)NC(=O)[C@H](C)N)C(=O)N[C@H](C(=O)O)C(C)C
Kd (F-box only protein 22; binding, SPR): 29 µM

CC(C)C[C@H](NC(=O)[C@H](Cc1c[nH]c2ccccc12)NC(=O)CNC(=O)[C@H](Cc1ccccc1)NC(=O)[C@H](CO)NC(=O)[C@H](Cc1c[nH]c2ccccc12)NC(=O)[C@H](Cc1c[nH]c2ccccc12)NC(=O)[C@@H]1CCCN1C(=O)[C@@H](N)C(C)C)C(=O)N[C@@H](Cc1c[nH]cn1)C(=O)N[C@@H](C)C(=O)N1CCC[C@H]1C(=O)O
Kd (VSIR IgV domain; binding, microscale thermophoresis): 39 µM

Repeated from above:
COc1ccccc1C(c1ccccc1)C1CCCN1C(=O)CNC(=O)[C@@H]1CCCN1C(=O)[C@H](CC(C)C)NC(=O)[C@H](COP(=O)(O)O)NC(=O)[C@@H]1CCCN1C(=O)[C@@H](NC(=O)[C@H](CCCNC(=N)N)NC(C)=O)[C@@H](C)O (stereo partly drawn)
Kd (YWHAZ; isothermal titration calorimetry): 13.6 ± 2.46 µM
